Assay results collected from several papers.
Compare with care: the assays were run in different laboratories. Values joined by “and” are separate records of one study, mostly repeats; a detail may differ. ± marks the error that the study gave.

Compound | test | system | conditions | scale | endpoint | result
CNC(=O)c1cc(Oc2ccc(NC(=O)Nc3ccc(Cl)c(C(F)(F)F)c3)cc2)ccn1 | LC-MS/MS | nude mouse subcutaneous tumour model, tumour tissue | intratumoral, 2 mg/kg, PDC 1 miR-3609 + EPAS-1 mutant |  | t1/2 | 28.7 ± 2.71 h
CCCC[C@@H]1NC(=O)[C@@H](NC(=O)[C@H](CCC(=O)O)NC(=O)CNC(=O)CN2CCN(CC(=O)O)CCN(CC(=O)O)CCN(CC(=O)O)CC2)CCCCNC(=O)C[C@@H](C(N)=O)NC(=O)[C@H](C(C)C)NC(=O)[C@@H]2CCCN2C(=O)[C@H](CCCNC(=N)N)NC(=O)CNC(=O)[C@H](Cc2c[nH]c3ccccc23)NC(=O)[C@H](CCCNC(=N)N)NC(=O)[C@@H](Cc2ccccc2)NC(=O)[C@H](Cc2c[nH]cn2)NC(=O)[C@H](CCC(=O)O)NC1=O [indium-111 labelled] |  | C57 mice, B16/F10 lung metastatic melanoma, pancreas | intravenous, 0.037 MBq, 4 h |  | tissue uptake | 0.1 ± 0.07 %ID/g
Nc1nc2ncc(CNc3ccc(C(=O)N[C@@H](CCC(=O)O)C(=O)O)cc3)nc2c(=O)[nH]1 | mitochondrial swelling | BALB/cByJ female mouse liver mitochondria | 30 min, with: succinate + rotenone | reference: CaCl2 maximal swelling | EC20 | > 800 µM
CCCCNC(=O)CN1CCN(CC(=O)[O-])CCN(CC(=O)[O-])CCN(CC(=O)[O-])CC1.[67Ga+3] | RP-TLC | murine plasma | 24 h, 37 °C, 5% CO2 |  | intact radiolabelled complex | 83.9 ± 0.5%
Cc1nc2cccc(OCC(C)(C)C(=O)NC(C)C)c2c(N)c1C(=O)O |  | male Sprague-Dawley rat, plasma | dietary, 30 mg/kg/day, day 7 |  | Tmax | 3 h
C[C@H](Oc1ccc(-c2nc(-c3ccc4[nH]cnc4c3)no2)cc1C(F)(F)F)C(F)(F)F |  | cynomolgus monkey, aneurysm model, plasma | 0.1 mg/kg once daily, 1 h post-dose, 4 weeks dosing |  | plasma concentration | 14 ± 4 nM
CCOC(=O)CN[C@@H](C(=O)N1CC[C@H]1C(=O)NCc1ccc(/C(N)=N\O)cc1)C1CCCCC1 | mitochondrial swelling | BALB/cByJ female mouse liver mitochondria | 30 min, with: succinate + rotenone | reference: CaCl2 maximal swelling | EC20 | > 400 µM
CN(CCOc1ccc(CC2SC(=O)NC2=O)cc1)c1ccccn1 (centres unmarked) |  | Sprague-Dawley rat, female, plasma | intraperitoneal, 5 mg/kg of dasatinib, with: dasatinib co-dosed |  | MRT(0-24 h) | 3.04 ± 0.79 h
NNC(=O)c1ccncc1 | mitochondrial swelling | BALB/cByJ female mouse liver mitochondria | 30 min, with: succinate + rotenone | reference: CaCl2 maximal swelling | EC20 | > 800 µM
CC(=O)O[C@H]1C(=O)[C@@]2(C)[C@H]([C@H](OC(=O)c3ccccc3)[C@]3(O)C[C@H](OC(=O)[C@H](O)[C@@H](NC(=O)c4ccccc4)c4ccccc4)C(C)=C1C3(C)C)[C@]1(OC(C)=O)CO[C@@H]1C[C@@H]2O |  | patients | i.v., 200 mg/m^2, 3 h, with: lenvatinib 6 mg twice daily, carboplatin |  | end-of-infusion concentration | 6560 ± 1570 ng/mL
CCCC(CCC)C(=O)O | regression tree, item: chills | human, plasma | intravenous, dose not given |  | AUCinf breakpoint | > 8680 µg·h/mL
Nc1nc2c(ccc3ccccc32)s1 |  | mouse, plasma | intraperitoneal, 10 mg/kg, 4 h |  | concentration | 1400 nM
CCCCCCCCCCCCCCC[C@H](O)[C@@H](N)CO |  | human, phase I, plasma | intravenous, 60 mg/m^2, day 1, monotherapy |  | AUC | 11.2 µM·h
CC1=C2C[C@H]3[C@@H](CC[C@@H]4C[C@H](NS(C)(=O)=O)CC[C@@]43C)[C@@H]2CC[C@@]2(C1)O[C@@H]1C[C@H](C)CN[C@H]1[C@H]2C |  | patients, plasma | oral, 160 mg single, day -7, cycle 1 |  | AUC(0-24) | 1.27 µg·h/mL
CCC1=C(C)CN(C(=O)NCCc2ccc(S(=O)(=O)NC(=O)N[C@H]3CC[C@H](C)CC3)cc2)C1=O | cytochrome c release, ELISA | BALB/cByJ female mouse liver mitochondria | 30 min | reference: alamethicin maximal release | EC20 | > 800 µM
NC(=O)C(c1ccccc1)(c1ccc(F)cc1)c1ccc(F)cc1 | LC-MS | male C57BL/6J mice, brain and plasma | intraperitoneal, 50 mg/kg | brain significantly higher than plasma | time brain over plasma concentration | ≥ 6 h
CN(C)C(=O)c1cc2cnc(Nc3ccc(N4CCNCC4)cn3)nc2n1C1CCCC1 |  | CD1 nude mouse, non-tumour-bearing, plasma (unbound) | oral, 100 mg/kg, microdialysis study |  | unbound AUC(0-24h) | 7.64 ± 2.16 µg·h/mL
Oc1cc(O)cc(O)c1 | mitochondrial swelling | BALB/cByJ female mouse liver mitochondria | 30 min, with: succinate + rotenone | reference: CaCl2 maximal swelling | EC20 | > 800 µM

Compound | test | system | conditions | scale | endpoint | result
CCCOc1ccc([C@H]2CNC(=O)N2c2ccc3[nH]cnc3c2)cc1 |  | human, plasma | oral, 800 mg, single dose, fasted |  | AUC(0-inf) | 8.58 µg·h/mL
CC[C@H](C)[C@H](NC(=O)[C@H](Cc1ccc(O)cc1)NC(=O)[C@@H](NC(=O)[C@H](CC(N)=O)NC(=O)[C@H](C)NC(=O)[C@H](CCCNC(=N)N)NC(=O)[C@H](CCCNC(=N)N)NC(=O)[C@H](CC(N)=O)NC(=O)[C@H](CCCNC(=N)N)NC(=O)[C@H](CCCNC(=N)N)NC(=O)[C@H](C)NC(=O)[C@@H](NC(=O)[C@H](CO)NC(=O)[C@@H](NC(=O)[C@@H](NC(=O)[C@H](CS)NC(=O)[C@H](CCCCN)NC(=O)[C@@H](N)CCCNC(=N)N)C(C)C)[C@@H](C)CC)C(C)C)[C@@H](C)CC)C(=O)N[C@@H](CC(C)C)C(=O)N[C@@H](CS)C(=O)N[C@@H](CCCNC(=N)N)C(=O)O | LC-MS | PBS | 0.1 mg/mL |  | single disulfide form | 38%
CC(C)(O)CNc1nc(Nc2ccnc(C(F)(F)F)c2)nc(-c2cccc(C(F)(F)F)n2)n1 |  | human patients | oral, 100 mg once daily, cycle 1 days 1 and 8, with: induction chemotherapy |  | mean Cmax | 1410 ng/mL
S=C(NCCCc1c[nH]cn1)NCCCN(Cc1ccc(Cl)c(Cl)c1)c1ccc(Br)cn1 |  | male C57BL/6 mouse, plasma | intraperitoneal, 30 mg/kg, 24 h |  | concentration | 10.2 ng/mL
C[C@@]12C[C@@]3(O)O[C@@H](O1)[C@]1(COC(=O)c4ccccc4)[C@H]3C[C@@]12O[C@@H]1O[C@H](CO)[C@@H](O)[C@H](O)[C@H]1O |  | extracted rat plasma, autosampler | 45.0 ng/mL, 24 h, 4 °C, post-preparative stability, low QC |  | accuracy | 100 % nominal
O=C(O)c1cc(O)ccc1O |  | human, fasted baseline, cerebrospinal fluid |  |  | mean concentration | 35.3 nM
Cc1c(C)c2c(c(C)c1O)CCC(C)(COc1ccc(CC3SC(=O)NC3=O)cc1)O2 (centres unmarked) | parallel tube model | human | from oral clearance |  | intrinsic hepatic clearance | 3830 L/h
COc1cccc(-c2ccc(NC(=O)C3=C(C(=O)O)CCC3)c(F)c2)c1 |  | human, male, plasma | oral, 40 mg once daily, day 13, geometric mean |  | AUC(0-24h) | 159 µg·h/mL
CN[C@H]1CN(c2ccc3c(=O)c(C(=O)O)cn(-c4nccs4)c3n2)C[C@@H]1OC |  | human patients, plasma | intravenous, 9 to 50 mg/m^2 twice weekly, day 4, cycle 1, mean, noncompartmental |  | Vss | 145 L
CN[C@@H]1[C@H](O)[C@H](NC)[C@H]2O[C@@]3(O)C(=O)C[C@@H](C)O[C@H]3O[C@@H]2[C@H]1O | cytochrome c release, ELISA | BALB/cByJ female mouse liver mitochondria | 30 min | reference: alamethicin maximal release | EC20 | > 400 µM
C[C@]12CC[C@@H]3c4ccc(O)cc4CC[C@H]3[C@@H]1C[C@@H](O)[C@@H]2O | GC-MS | breast cancer women on NSAI, serum | vaginal, 0.03 mg daily, 8 h, day 28 |  | minimum serum concentration | 0 ng/mL
Cc1c(O)cccc1C(=O)N[C@@H](CSc1ccccc1)[C@H](O)CN1C[C@H]2CCCC[C@H]2C[C@H]1C(=O)NC(C)(C)C | cytochrome c release, ELISA | BALB/cByJ female mouse liver mitochondria | 30 min | reference: alamethicin maximal release | EC20 | > 200 µM
CCCC[C@H](NC(C)=O)C(=O)N[C@H]1CCC(=O)NC[C@@H](C(=O)N[C@@H](Cc2c[nH]c3ccccc23)C(N)=O)NC(=O)[C@H](CCCNC(=N)N)NC(=O)[C@@H](Cc2ccccc2)NC(=O)[C@H](Cc2c[nH]cn2)NC1=O |  | Sprague Dawley rats, female, plasma | subcutaneous, 25.0 mg/kg daily, day 28 |  | Cmax | 1180 ng/mL
CCOc1ccc(Cc2cc([C@]34OC[C@](CO)(O3)[C@@H](O)[C@H](O)[C@H]4O)ccc2Cl)cc1 | 14C microtracer urinary excretion | human, fasted | oral | reference: test over reference geometric means | fraction absorbed ratio | > 100% and ~100%
CC(=O)Oc1ccc(C(c2ccc(OC(C)=O)cc2)c2ccccn2)cc1 | cytochrome c release, ELISA | BALB/cByJ female mouse liver mitochondria | 30 min | reference: alamethicin maximal release | EC20 | > 400 µM
Cc1cc(C(=O)NC(C)(C)COc2cccc3c2C(N)=NS(=O)(=O)N3)cc(C)n1 |  | female Sprague-Dawley rat, plasma | oral, 10 mg/kg, single dose |  | bioavailability | 0.43%
Cn1c(-c2ccc(C(N)=O)cc2F)nnc1C(C)(C)Oc1c(F)cc(Cl)cc1F |  | young non-Japanese healthy subjects, plasma | oral, 0.2 mg once daily, 3 mg loading day 1, median, last dosing day |  | Ctrough | 0.557 ng/mL
